Experimental data collected from several papers.
Protocols differ between the studies behind these lines. ± gives the spread as reported.

Structure (SMILES)	assay	test system	setting	how to read	endpoint	value
CC(C)C[C@H](NC(=O)C[C@H](O)[C@H](CC(C)C)NC(=O)[C@H](Cc1c[nH]cn1)NC(=O)CNC(=O)[C@@H](NC(=O)[C@H](C)NC(=O)[C@H](Cc1c[nH]c2ccccc12)NC(=O)[C@H](CCC(N)=O)NC(=O)[C@@H](Cc1ccccc1)NC(=O)CCNC(=O)CCNC(=O)CN1CCN(CC(=O)O)CCN(CC(=O)O)CCN(CC(=O)O)CC1)C(C)C)C(N)=O [lutetium-177 labelled]		mouse, PC-3 xenograft	intravenous		tumour clearance half-life	20.8 ± 8.5 h
O=C(O)CCC(NP(=O)(O)OCCC[C@@H](NC(=O)CC[C@H](NC(=O)CCCCCNC(=O)c1ccc([18F])cc1)C(=O)O)C(=O)O)C(=O)O (stereo partly drawn)		mouse, CWR22Rv1 xenograft	dose not given, 4 h	reference: tumour over blood	tumour to blood ratio	265 ± 136
N=C(N)NCCC[C@@H]1NC(=O)[C@H](CCCCNC(=O)CC[C@H](NC(=O)[C@H]2O[C@@H](CNC(=O)c3ccc(F)cc3)[C@H](O)[C@@H](O)[C@H]2O)C(=O)NCCCC[C@@H]2NC(=O)[C@@H](Cc3ccc(O)cc3)NC(=O)[C@H](CC(=O)O)NC(=O)CNC(=O)[C@H](CCCNC(=N)N)NC2=O)NC(=O)[C@@H](Cc2ccc(O)cc2)NC(=O)[C@H](CC(=O)O)NC(=O)CNC1=O [fluorine-18 labelled]	microPET imaging	female athymic nude mouse, U-87 MG xenograft, U-87 MG tumour	intravenous, 3.7 MBq, 2 h post-injection		tumour uptake	1.75 ± 0.25 %ID/g
CN1C(=O)[C@@H](Cc2ccc(O)cc2)NC(=O)CNC(=O)[C@H](Cc2ccc3ccccc3c2)NC(=O)[C@H](CCCNC(=N)N)NC(=O)[C@H]1CCCNC(=O)c1ccc(CNC(=O)CN2CCN(CC(=O)O)CCN(CC(=O)O)CCN(CC(=O)O)CC2)cc1 [gallium-68 labelled]		mouse, CB-17 SCID, female, SU-DHL-8 xenograft, tumour	intravenous, 0.05 nmol, 90 min		tumour uptake	3.5 %ID/g
O=C(NCCN1C(=O)C=CC1=O)[O][Pt-2]12([O]C(=O)NCCN3C(=O)C=CC3=O)([NH2+][C@@H]3CCCC[C@H]3[NH2+]1)[O]C(=O)C(=O)[O]2		BALB/c mouse CT26 allograft, tumour	intravenous, equimolar single dose	reference: compound over oxaliplatin	tumour uptake AUC ratio	10 fold
CCCC[C@H](NC(=O)CNC(=O)CNC(=O)CN1CCN(CC(=O)O)CCN(CC(=O)O)CCN(CC(=O)O)CC1)C(=O)N[C@H]1CC(=O)NCCCC[C@@H](C(N)=O)NC(=O)[C@H](Cc2c[nH]c3ccccc23)NC(=O)[C@H](CCCNC(=N)N)NC(=O)[C@@H](Cc2ccccc2)NC(=O)[C@H](Cc2c[nH]cn2)NC1=O [indium-111 labelled]		C57 mouse, B16/F1 melanoma	2 h	reference: tumour over skin	tumour to skin uptake ratio	70.6
N=C(N)NCCC[C@@H]1NC(=O)[C@H](CCCCNC(=O)CC[C@H](NC(=O)CC[C@H](NC(=O)CN2CCN(CC(=O)O)CCN(CC(=O)O)CCN(CC(=O)O)CC2)C(=O)N[C@@H](CCC(=O)NCCCC[C@@H]2NC(=O)[C@@H](Cc3ccccc3)NC(=O)[C@H](CC(=O)O)NC(=O)CNC(=O)[C@H](CCCNC(=N)N)NC2=O)C(=O)NCCCC[C@@H]2NC(=O)[C@@H](Cc3ccccc3)NC(=O)[C@H](CC(=O)O)NC(=O)CNC(=O)[C@H](CCCNC(=N)N)NC2=O)C(=O)NCCCC[C@@H]2NC(=O)[C@@H](Cc3ccccc3)NC(=O)[C@H](CC(=O)O)NC(=O)CNC(=O)[C@H](CCCNC(=N)N)NC2=O)NC(=O)[C@@H](Cc2ccccc2)NC(=O)[C@H](CC(=O)O)NC(=O)CNC1=O [indium-111 labelled]		female nude BALB/c mouse, SK-RC-52 xenograft, tumour	intravenous, 2 h		tumour uptake	7.32 ± 2.45 %ID/g
Cc1ccc(C(C)C)cc1.O=C(N=P(c1ccccc1)(c1ccccc1)c1ccccc1)c1ccccn1.[Cl-].[Cl-].[Ru+2]	measured: ruthenium	NOD.CB17-Prkdc scid/J mouse, tumour	dose not given, end of efficacy study		tumour concentration	~40 µg/g
CC(F)C(=O)NC[C@@H]1O[C@H](C(=O)NCCCC[C@@H]2NC(=O)[C@@H](Cc3ccccc3)NC(=O)[C@H](CC(=O)O)NC(=O)CNC(=O)[C@H](CCCNC(=N)N)NC2=O)[C@H](O)[C@H](O)[C@H]1O (stereo partly drawn) [fluorine-18 labelled]	microPET imaging	female athymic nude mouse, U-87 MG xenograft, U-87 MG tumour	intravenous, 3.7 MBq, 1 h post-injection		tumour uptake	1.16 ± 0.06 %ID/g
CCCC[C@H](NC(=O)CN1CCC(NC(=O)CN2CCN(CC(=O)O)CCN(CC(=O)O)CCN(CC(=O)O)CC2)CC1)C(=O)N[C@H]1CC(=O)NCCCC[C@@H](C(N)=O)NC(=O)[C@H](Cc2c[nH]c3ccccc23)NC(=O)[C@H](CCCNC(=N)N)NC(=O)[C@@H](Cc2ccccc2)NC(=O)[C@H](Cc2c[nH]cn2)NC1=O	biodistribution	C57BL/6J mouse male tumour-bearing	2 h post injection, unblocked	reference: tumour over blood	tumour to blood ratio	96.4 ± 13.9
CC(F)C(=O)NC[C@@H]1O[C@H](C(=O)NCCCC[C@@H]2NC(=O)[C@@H](Cc3ccc(O)cc3)NC(=O)[C@H](CC(=O)O)NC(=O)CNC(=O)[C@H](CCCNC(=N)N)NC2=O)[C@H](O)[C@H](O)[C@H]1O (stereo partly drawn) [fluorine-18 labelled]	microPET imaging	female athymic nude mouse, U-87 MG xenograft, U-87 MG tumour	intravenous, 3.7 MBq, 1 h post-injection		tumour uptake	1.47 ± 0.23 %ID/g
CCCC[C@H](NC(=O)[C@H](CCC(=O)O)NC(=O)CNC(=O)CN1CCN(CC(=O)O)CCN(CC(=O)O)CCN(CC(=O)O)CC1)C(=O)N[C@H]1CC(=O)NCCCC[C@@H](C(N)=O)NC(=O)[C@H](Cc2c[nH]c3ccccc23)NC(=O)[C@H](CCCNC(=N)N)NC(=O)[C@@H](Cc2ccccc2)NC(=O)[C@H](Cc2c[nH]cn2)NC1=O [indium-111 labelled]		C57 mouse, B16/F1 melanoma	24 h	reference: tumour over skin	tumour to skin uptake ratio	27.5

Some of these lines once more:
Structure (SMILES)	assay	test system	setting	how to read	endpoint	value
O=C(NCCN1C(=O)C=CC1=O)[O][Pt-2]12([O]C(=O)NCCN3C(=O)C=CC3=O)([NH2+][C@@H]3CCCC[C@H]3[NH2+]1)[O]C(=O)C(=O)[O]2		BALB/c mouse CT26 allograft, tumour	intravenous, equimolar single dose	reference: compound over oxaliplatin	tumour uptake AUC ratio	10 fold
